# Published values of several laboratories.
# Each line is one published result; not all experiments were run side by side. Values joined by “and” are separate records of one study, mostly repeats; a detail may differ. Numbers after ± are the reported error.
Structure (SMILES),test,test system,setting,scale,endpoint,result
CCOc1ccc2cc(-c3nn(CC4CCN(C)CC4)c4ncnc(N)c34)ccc2n1,LC-MS/MS,crossbred piglets (Landrace x Large White),"oral, 10 mg/kg twice daily, 2 h before dose 9, day 7 post-infection",,plasma concentration,11.7 µM
CONC(=O)[C@H]1[C@@H](O)[C@@]2(O)c3c(cc(OC)nc3OC)O[C@@]2(c2ccc(C#N)cc2)[C@@H]1c1ccccc1,,plasma,"intravenous, 0.5 mg/kg",,plasma half-life,4.11 h
CN1CCC(Cn2nc(-c3ccc4nc(O)ccc4c3)c3c(N)ncnc32)CC1,,"piglets, crossbred","oral, 10 mg/kg twice daily, 2 h after dose 9, 7 days post infection",,plasma concentration,0.02 ± 0.01 µM
COc1ccc(-c2csc(N/N=C(\C)c3cc(O)cc(O)c3)n2)cc1,equilibrium dialysis,"human plasma, male","3 µM, 5 h, pH 7.4",,plasma protein binding,99.4% and 100% and 99.9%
Nc1c(S(=O)(=O)O)cc(Nc2cccc(S(N)(=O)=O)c2)c2c1C(=O)c1ccccc1C2=O,,mouse plasma,"8 µM, 72 h, 37 °C",,plasma stability,stable
CCCCCCCCCCCCCCCC(=O)N[C@@H](CCCCN)C(=O)N[C@@H](CCCCN)C(=O)N[C@@H](CO)C(=O)N[C@@H](CCCNC(=N)N)C(=O)N[C@@H](C)C(=O)N[C@@H](CC(C)C)C(=O)N[C@@H](Cc1ccccc1)C(N)=O,LC-MS/MS,baboon,"intravenous infusion, 3 and 6 mg/kg, 24 to 48 h",,plasma concentration,not detected
C[C@@H](O)[C@@H]1NC(=O)[C@@H]2CCCN2C(=O)[C@H](CC(N)=O)NC(=O)[C@@H](NC(=O)[C@H](Cc2ccc(O)cc2)NC(=O)CNC(=O)[C@@H](N)CC(N)=O)CCC(=O)NCCCC[C@@H](C(=O)N[C@@H](Cc2ccccc2)C(=O)N[C@@H](Cc2ccccc2)C(=O)N[C@@H](CCC(=O)O)C(=O)O)NC(=O)[C@H](Cc2ccc(O)cc2)NC1=O,,human plasma,37 °C,baseline: APP wild-type peptide,plasma half-life,4 fold
CN1C(=CC2=C([O-])C(=CC3=[N+](CCC[N+](C)(C)C)c4ccc(S(=O)(=O)[O-])cc4C3(C)C)C2=O)C(C)(C)c2ccccc21,rapid equilibrium dialysis,plasma,,,plasma protein binding,4.4%
O=C(CCC(C(=O)[O-])N1CCN(C(CCC(=O)NCC(O)CO)C(=O)[O-])Cc2cccc(n2)CN(C(CCC(=O)NCC(O)CO)C(=O)[O-])CC1)NCC(O)CO.[153Gd+3] (centres unmarked),equilibrium dialysis,rat plasma,"0.01-5 µmol/mL, 2 h, 37 °C",,plasma protein binding,0%
CN1C(=CC2=C(O)C(=CC3=[N+](CCC[N+](C)(C)C)c4ccccc4C3(C)C)C2=O)C(C)(C)c2ccccc21,rapid equilibrium dialysis,plasma,,,plasma protein binding,2.8%
CCOc1ccc2cc(-c3nn(CC4CCNCC4)c4ncnc(N)c34)ccc2n1,,"piglets, crossbred","oral, 10 mg/kg, 2 h after dose 1, 3 days post infection",,plasma concentration,0.01 ± 0.01 µM

# For quick reference, copied from above:
Structure (SMILES),test,test system,setting,scale,endpoint,result
COc1ccc(-c2csc(N/N=C(\C)c3cc(O)cc(O)c3)n2)cc1,equilibrium dialysis,"human plasma, male","3 µM, 5 h, pH 7.4",,plasma protein binding,99.4% and 100% and 99.9%
